Results from different studies.
Lines come from different studies, so protocols differ. ± marks the error that the study gave. Converted amounts (≈) assume the structure as drawn.

CC(C)(N)C(=O)O — Kd (Ehrlich ascites cells, mouse; substrate binding to free carrier; equilibrium model K3): 6000 µM
CC(C)(O/N=C(\C(=O)N[C@@H]1C(=O)N2C(C(=O)[O-])=C(C[n+]3ccccc3)CS[C@H]12)c1csc(N)n1)C(=O)O — MIC (Enterococcus faecalis; microbial growth, broth dilution; ATCC29212): 256 µg/mL (≈ 468 µM)
N/C(=N\O)c1ccc(-c2cncc(-c3ccc(/C(N)=N/O)cn3)n2)cc1 — cured mice (Trypanosoma brucei rhodesiense; STIB900, mouse, acute infection; oral, 25 mg/kg daily, 4 days, parasite-free survival 60 days): 50%
OC(Cn1cncn1)(Cn1cncn1)c1ccc(F)cc1F — time to 1 log10 kill (Cryptococcus neoformans; CN, PBS; 2 x MIC, up to 48 h, 37 °C; relative to: untreated): > 48 h
CN(C)c1ccc(O)c2c1C[C@H]1C[C@H]3[C@H](N(C)C)C(O)=C(C(N)=O)C(=O)[C@@]3(O)C(O)=C1C2=O — worm length reduction (Litomosoides sigmodontis; mouse; i.p., 25 mg/kg/day for 10 days): 81.7%
C/C=C(C)/C=C/C=C/[C@H](OC)[C@@H](C)[C@@H](OC)[C@@H](C)CCc1oc2c(O)c(OC)cc(OC)c2c(=O)c1C — IC50 (Wickerhamomyces anomalus; O2 uptake, inhibitor; mitochondria; added: malate and pyruvate 15 mM): 0.042 µM
CC(=O)N1CCN(c2ccc(C(=O)N[C@H](Cc3c[nH]c4ccccc34)C(=O)Nc3ccncc3)c(F)c2)CC1 — inhibition (Trypanosoma cruzi; Y luc, mouse; oral, 25 mg/kg twice daily, 4 days, 20% solutol vehicle): 0%
Cc1ccc(S(=O)(=O)N2C(=O)CSC2c2ccccc2)cc1 (stereo not drawn) — MIC (Streptococcus pneumoniae; broth microdilution; ATCC 49619): 128 µg/mL (≈ 384 µM)
COc1c(Cl)c(C)c(C=O)c(O)c1C/C=C(C)/C=C/[C@@]1(C)[C@H](C)CCC(=O)[C@@H]1C — IC50 (Wickerhamomyces anomalus; O2 uptake, inhibitor; mitochondria; added: succinate 15 mM): 4.8 µM
O=C(/C=C/c1cccc(O)c1)c1ccc(Cl)cc1 — EC50 (Plasmodium knowlesi; parasite growth; 24 h, blood stage): 36.8 µM
O=CCCCC=O — IC50 (cysteine peptide Ac-RFAACAA-COOH; peptide depletion, DPRA RapidFire-MS/MS; 24 h, pH 7.5, room temperature, added: 5.0 µM cysteine peptide): 1030 µM
Cc1ccc(S(=O)(=O)N2C(=O)CSC2c2cccc(Cl)c2)cc1 (stereo not drawn) — MIC (Streptococcus pneumoniae; broth microdilution; ATCC 49619): 8 µg/mL (≈ 21.7 µM)
CCCC(=O)Nc1ncnc2c1ncn2[C@@H]1O[C@@H]2COP(=O)(O)O[C@H]2[C@H]1OC(=O)CCC — relative maximal response (Bufo marinus; agonist; urinary bladder; relative to: deamino-oxytocin): 0.8
NS(=O)(=O)c1nnc(NC(=O)CCc2ccccc2)s1 — MIC90 (Neisseria gonorrhoeae; broth microdilution; clinical isolates): 4 µg/mL (≈ 12.8 µM)
O=C(N[C@H](Cc1c[nH]c2ccccc12)C(=O)Nc1ccncc1)c1ccc(-c2cc(C(F)(F)F)ccc2F)cc1F — parasite inhibition (Trypanosoma cruzi; Y luc, mouse; oral, 50 mg/kg twice daily, 4 days, vehicle 20% Solutol): > 90%
CN(C)c1ccc(Nc2c3ccccc3nc3ccccc23)cc1 — IC50 (Trypanosoma cruzi; parasite growth, resazurin; trypomastigote): 8.88 µM
colistin — FIC index (Staphylococcus aureus; checkerboard broth microdilution; ATCC 25922; added: magainin II): 1.5
CC[C@H]1OC(=O)[C@H](C)[C@@H](O[C@H]2C[C@@](C)(OC)[C@@H](O)[C@H](C)O2)[C@H](C)[C@@H](O[C@@H]2O[C@H](C)C[C@H](N(C)C)[C@H]2O)[C@](C)(O)C[C@@H](C)CN(C)[C@H](C)[C@@H](O)[C@]1(C)O — sensitive strains (Streptococcus pneumoniae; community-acquired pneumonia patients; Fine score below 70): 100%
C[C@H]1c2cccc(O)c2C(=O)C2=C(O)[C@]3(O)C(=O)C(C(N)=O)=C(O)[C@@H](N(C)C)[C@@H]3[C@@H](O)[C@@H]21 — worm length reduction (Litomosoides sigmodontis; mouse; i.p., 25 mg/kg/day for 10 days): 78.3%
CCN(CC)CCOc1ccc(-c2nc3ccc(F)cc3[nH]2)cc1F — MIC (Enterococcus faecalis; microbial growth, broth dilution; ATCC29212): > 256 µg/mL
OCC(O)CO — IC50 (cysteine peptide Ac-RFAACAA-COOH; peptide depletion, DPRA RapidFire-MS/MS; 24 h, pH 7.5, room temperature, added: 5.0 µM cysteine peptide): inactive
Cc1ccc(S(=O)(=O)N2C(=O)CSC2c2ccc(Br)cc2)cc1 (stereo not drawn) — MIC (Streptococcus pneumoniae; broth microdilution; ATCC 49619): 64 µg/mL (≈ 155 µM)
CO/N=C(\N)c1ccc(-c2cncc(-c3ccc(/C(N)=N\OC)cc3)n2)cc1 — cured mice (Trypanosoma brucei rhodesiense; STIB900, mouse, acute infection; oral, 25 mg/kg daily, 4 days, parasite-free survival 60 days): 75%
O=C(Cn1ccnc1[N+](=O)[O-])NCc1ccccc1 — IC50 (Trypanosoma cruzi; parasite growth; 72 h, epimastigote): 9.5 µM
N=C(N)c1ccc(-c2cncc(-c3ccc(C(=N)N)nc3)n2)cn1 — cured mice (Trypanosoma brucei rhodesiense; STIB900, mouse, acute infection; intraperitoneal, 5 mg/kg daily, 4 days, parasite-free survival 60 days): 25%
c1ccc(CSc2ncnc3nc[nH]c23)cc1 — inhibition (Helicobacter pylori; microbial growth, absorbance; 26695; 85 µM): 83%
N/C(=N\O)c1ccc(-c2cncc(-c3ccc(/C(N)=N/O)cc3)n2)cc1 — cured mice (Trypanosoma brucei rhodesiense; STIB900, mouse, acute infection; oral, 25 mg/kg daily, 4 days, parasite-free survival 60 days): 100%
C[C@@H](NS(=O)(=O)c1ccc(F)c(C(=O)Nc2ccc(F)c(F)c2)c1)C1CC1 — capsid-associated HBV DNA (hepatitis B virus; particle gel Southern blot; HepDES19; 5 µM, 6 d): decreased
Clc1nc(OCc2ccccc2)c2[nH]cnc2n1 — inhibition (Helicobacter pylori; microbial growth, absorbance; 26695; 95 µM): ~35%
C[C@@H](O)[C@H]1C(=O)N2C(C(=O)O)=C(S[C@@H]3CN[C@H](C(=O)N(C)C)C3)[C@H](C)[C@H]12 — FIC index (Staphylococcus aureus; checkerboard broth microdilution; clinical isolate 21-99; added: magainin II): 0.187
CC(/C=C/[C@@]1(C)[C@H](C)CCC(=O)[C@@H]1C)=C\Cc1c(O)c(Cl)c(C)c(C=O)c1O — IC50 (Wickerhamomyces anomalus; O2 uptake, inhibitor; mitochondria; added: NADH 1 mM): 0.035 µM
Cc1ncc([N+](=O)[O-])n1CCO — inhibition (Helicobacter pylori; bacterial growth, OD600; 26695; 12 µM): 89 to 92%
Cc1ccc(S(=O)(=O)N2C(=O)CSC2c2ccc(C(C)C)cc2)cc1 (stereo not drawn) — MIC (Streptococcus pneumoniae; broth microdilution; ATCC 49619): > 256 µg/mL
O=C(Nc1ccc(NCc2ccccc2)cc1Cl)c1cc(Cl)ccc1O — virus titre log reduction (human respiratory syncytial virus; infectious progeny production; A549; 10 µM, 15 h; relative to: vehicle): ~1.5 log10
C#CCn1cc(/C=C2\SC(=S)NC2=O)c2cc([N+](=O)[O-])ccc21 — IC50 (Trypanosoma brucei rhodesiense; trypomastigotes, IL1501): 78 ± 2.9 µM
CO/N=C(\C(=O)N[C@@H]1C(=O)N2C(C(=O)O)=C(CSc3nc(=O)c(=O)[nH]n3C)CS[C@H]12)c1csc(N)n1 — FIC index (Staphylococcus aureus; checkerboard broth microdilution; ATCC 25923; added: ranalexin): 0.75
CC(C=CC1(C)C(C)CCC(=O)C1C)=CCc1c(O)c(C=O)c(C)c(Cl)c1OC(=O)c1cccnc1 (stereo not drawn) — IC50 (Wickerhamomyces anomalus; O2 uptake, inhibitor; mitochondria; added: malate and pyruvate 15 mM): 0.37 µM
CC[C@H]1OC(=O)[C@H](C)[C@@H](O[C@H]2C[C@@](C)(OC)[C@@H](O)[C@H](C)O2)[C@H](C)[C@@H](O[C@@H]2O[C@H](C)C[C@H](N(C)C)[C@H]2O)[C@](C)(O)C[C@@H](C)C(=O)[C@H](C)[C@@H](O)[C@]1(C)O — sensitive strains (other non-fermenting bacteria; community-acquired pneumonia patients; Fine score 70 or more): 0%
CC(C)=CCC/C(C)=C/CO — time to 1 log10 kill (Cryptococcus neoformans; CN, PBS; 2 x MIC, up to 48 h, 37 °C; relative to: untreated): 9 to 10 h
CC(C=CC1(C)C(C)CCC(=O)C1C)=CCc1c(O)c(C=O)c(C)c(Cl)c1OCC(=O)O (stereo not drawn) — IC50 (Wickerhamomyces anomalus; O2 uptake, inhibitor; mitochondria; added: duroquinol 1 mM): 79.5 µM
C[C@H]1c2cccc(O)c2C(=O)C2=C(O)[C@]3(O)C(=O)C(C(N)=O)=C(O)[C@@H](N(C)C)[C@@H]3[C@@H](O)[C@@H]21 — FIC index (Staphylococcus aureus; checkerboard broth microdilution; methicillin-susceptible isolate 56-96; added: magainin II): 0.75
O=C(Cc1ccc(Cl)c(Cl)c1)N1CCN(c2ccc3nncn3n2)CC1 — EC90 (Cryptosporidium parvum; HCT-8; corrected for mouse protein binding): 0.036 µM
CC1(C)S[C@@H]2[C@H](NC(=O)[C@H](N)c3ccc(O)cc3)C(=O)N2[C@H]1C(=O)O — sensitive strains (Streptococcus pneumoniae; community-acquired pneumonia patients; Fine score below 70): 66.7%
Cc1ccc(S(=O)(=O)N2C(=O)CSC2c2ccc(Cl)cc2)cc1 (stereo not drawn) — MIC (Streptococcus pneumoniae; broth microdilution; ATCC 49619): 32 µg/mL (≈ 87 µM)
Cc1ccc(C(C)C)c(OCCn2c(=S)[nH]c3ccccc32)c1 — inhibition (Saccharomyces cerevisiae; reporter gene, refers to: Rlm1-lacZ; up to 20 µM, added: Calcofluor white): inhibited

A few entries again:
O=CCCCC=O — IC50 (cysteine peptide Ac-RFAACAA-COOH; peptide depletion, DPRA RapidFire-MS/MS; 24 h, pH 7.5, room temperature, added: 5.0 µM cysteine peptide): 1030 µM
O=C(N[C@H](Cc1c[nH]c2ccccc12)C(=O)Nc1ccncc1)c1ccc(-c2cc(C(F)(F)F)ccc2F)cc1F — parasite inhibition (Trypanosoma cruzi; Y luc, mouse; oral, 50 mg/kg twice daily, 4 days, vehicle 20% Solutol): > 90%
colistin — FIC index (Staphylococcus aureus; checkerboard broth microdilution; ATCC 25922; added: magainin II): 1.5
O=C(Cn1ccnc1[N+](=O)[O-])NCc1ccccc1 — IC50 (Trypanosoma cruzi; parasite growth; 72 h, epimastigote): 9.5 µM
CC[C@H]1OC(=O)[C@H](C)[C@@H](O[C@H]2C[C@@](C)(OC)[C@@H](O)[C@H](C)O2)[C@H](C)[C@@H](O[C@@H]2O[C@H](C)C[C@H](N(C)C)[C@H]2O)[C@](C)(O)C[C@@H](C)CN(C)[C@H](C)[C@@H](O)[C@]1(C)O — sensitive strains (Streptococcus pneumoniae; community-acquired pneumonia patients; Fine score below 70): 100%
C#CCn1cc(/C=C2\SC(=S)NC2=O)c2cc([N+](=O)[O-])ccc21 — IC50 (Trypanosoma brucei rhodesiense; trypomastigotes, IL1501): 78 ± 2.9 µM
